Measurements of several laboratories.
Numbered parts are unrelated; each lists some results of a single study. Substitutions count along the parent as printed.

Study 1
Target: Hepatocyte nuclear factor 3-alpha (Foxa1, Mus musculus, UniProt P35582, residues 1-468, full length assumed)
Chain of UniProt P35582 (whole entry, looked up): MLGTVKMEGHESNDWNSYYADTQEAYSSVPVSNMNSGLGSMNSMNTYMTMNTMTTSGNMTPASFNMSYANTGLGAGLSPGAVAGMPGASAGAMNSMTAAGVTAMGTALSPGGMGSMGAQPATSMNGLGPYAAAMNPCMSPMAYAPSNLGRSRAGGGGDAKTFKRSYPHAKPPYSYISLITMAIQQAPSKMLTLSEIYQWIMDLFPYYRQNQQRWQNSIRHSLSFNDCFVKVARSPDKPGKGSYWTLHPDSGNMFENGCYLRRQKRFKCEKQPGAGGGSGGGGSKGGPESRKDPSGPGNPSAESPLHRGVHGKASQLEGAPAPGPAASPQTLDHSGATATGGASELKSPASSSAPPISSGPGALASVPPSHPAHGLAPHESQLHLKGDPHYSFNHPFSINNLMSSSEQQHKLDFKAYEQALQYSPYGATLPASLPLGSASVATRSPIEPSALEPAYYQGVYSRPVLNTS
Method: EMSA with sequencing
Molecule type: double-stranded DNA, one strand shown
Matrix: in vitro
Tested at: 10 and 20 nM
Setting: whole designed probe, mean of two concentrations, ends assumed
Baseline: negative control set to 0
Reading: higher = stronger binding
Quantity: normalised bound fraction
Shared flanks, not repeated: GTGAGCGGTGCCCATTGATGGGGAAC … TTTCACTGGGATCGTGGGGAC
ATGTGGGAACTAATTGAGGACCATGTTTACAATGCGTACAAATCATAAATCAATTAGTTCATATTGACAAGGAAGAAATTTACAAAAAGTATTTGTTTACATTGATACTGTCCATGTAAACTTTTTTCAATTCAAAAGAAACACATAGTTCTGTCATAAAGTAGATTTTCTATCCCTTTTATTTTCTGAGCTT: 0.45 ratio
TTTGAGATTAATATGACAGTGTTGTTTCAACTTCATTGGTCAGTACCTTCTTATTCCTTTTCTATATGGATAGATTTGCCTTATATTTTAGATGTTTACTTTGAGTTTGTATTTTTCGTATTCAAAACAGTTAAATCAGAATGTTAAACTTCTAACAACAGATTCTCTTTGAACATTTTTACAAAAGTTTAAA: 0.288 ratio
AGCAAGGCTTTAAAAGTGAGGTCTTTCAGTTTAGATGCAAAAAGGGTGGTTCTGTTGAGTCAACCCAGTTTCGTAATGCTATTTCACTACATAGTAAACACCTAGAATGAGGTAGCTGGAGTGCAAATCTAAATGGCTTGTGACAGTTAAGGAAGTACATAGGCAACAGTTACTGGTTTTCTTGATGCAGCTG: 0.0125 ratio
ATCTGAAGGTTCTCAAGATCCTAAATGACTTCTGAAATTAAATTATGTTCAGTAAAAAGCTAAGTTAAACTCTTTAGGTTTTGAATAAACCTAAGTAAACAACAATTTTGTTGCACTAAAATAATACCTATCTTAAAAGTGGTTTCCCCAAACTATTAGCCAATCTCTTTCTCTAACCAAGCACTATTTTACC: 0.436 ratio
TCTAGAGACATTTCTTGGACAAAAGAAAAAAAACAAAGCTGAATTGTGAGAAGATGTCAGCAAAAAAGCACATCATTATTTAAATCAGGGCTAAGTAATTTAGGAGCTGGATGTGTCTGAGATTGCTTACAACACGTAGGATCAATTCATATATTTTAAGAAGTGCACGTATGGATTGAGCTGATTTGATTAA: -0.0103 ratio

Study 2
Target: Histone acetyltransferase KAT6A, both winged helices, GST fusion (KAT6A, Homo sapiens, UniProt Q92794, residues 1-181)
Method: protein binding microarray
Molecule type: double-stranded DNA, one strand shown
Matrix: in vitro
Tested at: not given
Setting: 8-mer, flanks averaged, mean of 2 arrays, mostly near background
Baseline: not given
Reading: higher = stronger binding
Quantity: E-score
Residues (chain): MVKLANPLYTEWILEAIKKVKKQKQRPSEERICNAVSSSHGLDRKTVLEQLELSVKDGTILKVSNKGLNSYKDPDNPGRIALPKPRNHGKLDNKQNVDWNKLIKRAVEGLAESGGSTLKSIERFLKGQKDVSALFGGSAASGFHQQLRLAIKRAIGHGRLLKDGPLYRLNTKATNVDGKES
AGTGGGGC: -0.18
CTGAGGGA: -0.209
GGTTCTAA: -0.05
AGCATCAT: -0.168
GTGGATCA: -0.101
AGTACAGA: -0.0906
GTCGCGGA: 0.246
GACACTCC: -0.0704
AACCTGTA: -0.126
GACATATA: 0.00997
AGTGAGGA: -0.373
CTTAGGCA: -0.196
CCGATGAG: 0.0358
CATTCTCA: -0.0642
GTCCTGTA: 0.0548
GAATTAGC: -0.0605
ATCGCCAC: 0.0163
ATCGTCCG: 0.124
CTGATGGA: -0.0193

Study 3
Target: CREB3L2, bZIP domain (human)
Method: DHFR protein complementation
Matrix: yeast
Setting: single substitutions, most at no-binding floor
Baseline: wild-type JUN-FOS pair
Reading: higher = stronger binding
Quantity: binding fitness
Starting sequence: JUN, bZIP domain (human); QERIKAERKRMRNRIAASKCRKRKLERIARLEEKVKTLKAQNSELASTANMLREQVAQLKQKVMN; partner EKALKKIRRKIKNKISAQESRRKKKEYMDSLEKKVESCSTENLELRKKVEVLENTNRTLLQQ
T48P: -1.5 natural log
K39P: -1.49 natural log
E44I: -1.42 natural log
S47F: -1.5 natural log
L45P: -1.47 natural log
R53Y: -1.54 natural log
S47R: -1.35 natural log
A29R: -1.48 natural log
E33C: -1.48 natural log
K34D: -1.5 natural log
E44L: -1.41 natural log
A49R: -1.46 natural log
T37N: -1.39 natural log

Study 4
Target: Centromere-binding protein 1, full length, His-tagged (CBF1, Saccharomyces cerevisiae, UniProt P17106, residues 1-351)
Chain of UniProt P17106 (whole entry, looked up): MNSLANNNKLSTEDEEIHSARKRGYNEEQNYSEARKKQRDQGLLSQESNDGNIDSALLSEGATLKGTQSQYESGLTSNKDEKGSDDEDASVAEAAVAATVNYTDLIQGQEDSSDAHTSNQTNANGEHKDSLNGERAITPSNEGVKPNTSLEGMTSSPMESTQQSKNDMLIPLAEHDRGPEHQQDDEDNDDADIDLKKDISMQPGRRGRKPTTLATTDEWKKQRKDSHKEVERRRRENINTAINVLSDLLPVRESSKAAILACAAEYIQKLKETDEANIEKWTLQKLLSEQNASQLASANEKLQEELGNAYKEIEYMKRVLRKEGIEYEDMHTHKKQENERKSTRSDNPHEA
Method: competition protein-binding microarray
Molecule type: double-stranded DNA, one strand shown
Matrix: in vitro
Tested at: 2 µM
Setting: whole 60-bp probe, lowest competitor level
Together with: Pho4 competitor, 0.05 µM
Reading: higher = stronger binding
Quantity: fluorescence intensity
Shared flanks, not repeated: … GTCTTGATTCGCTTGACGCTGCTG
CTTTCCCGATCTTGGTCTGTGGGTGTAGCACATTTG: 78.8 a.u.
AAGATATCTTTTTGTCATGTGATGGTACATCGTTTG: 901 a.u.
GCAATGCGATGCAGCCACGTTATATAATGCGTTTAA: 88.9 a.u.
CATACCCAACCTTGAAGTGTGGGTGAAGATATTTGT: 75.4 a.u.
CGTCCTAGTGATTGTCACGTAACTTCCATGAGGAAG: 126 a.u.
CATACCCAACCTTGAACCGTGGGTGAAGATATTTGT: 72.1 a.u.
TTCAGGGCTGCTCACAACGTGATGGATTTGAATTGA: 332 a.u.
AAATTACTAAGTTGATGGGTGGGTGACGCCGTATGA: 65.6 a.u.
AGGCGAATTCTTGTCATCGTGCCGACAGCAAGCCAT: 74.2 a.u.
AAGAAGTACGACCGACACGTTAGTATGCCTTTGTTG: 63.7 a.u.
CTTTCCCGATCTTGCCCTGTGGGTGTAGCACATTTG: 82.2 a.u.
CCTTTGGTTTAGATGCACGTGTTGACGACATGAAAG: 2150 a.u.
GTACTGTTTCATTTAAACGTGTTTTCACTTGATCCA: 116 a.u.
CATCCTTTCCAACATGATGTGACGAATTAACGACTG: 97.5 a.u.
CGGGGTTAAGTTTGAGGAGTGGGTGGCTTGCAGCAG: 74.4 a.u.
CTCTTCCTCAAGCGTCACCTGATCTCTTCTTTCCCA: 1630 a.u.
AGGGCATTGTCTACTCACGTGGTAATCAAATTCCAG: 2460 a.u.
AAAGCGGTAATTTGTCACACCACTTCACATATCTAT: 149 a.u.

Study 5
Target: CCNA1, cyclin fold, Cln2 fusion (human)
Method: yeast growth competition, sequencing
Matrix: yeast
Setting: strong parent motif
Baseline: not given
Reading: higher = stronger binding
Quantity: normalised enrichment score
Starting sequence: E2F1 docking peptide (human); PPVKRRLDFETDH
PPVKRKLDFETDH [R6K]: 1.71
PPKKRRLDFETDH [V3K]: 0.565
PPVKRRSDFETDH [L7S]: -0.217
PPVKRRLDFTTDH [E10T]: 1.63
PPVKARLDFETDH [R5A]: 0.408
PPVERRLDFETDH [K4E]: 0.0424
PPVNRRLDFETDH [K4N]: 1.06
PPVKVRLDFETDH [R5V]: 0.41
PIVKRRLDFETDH [P2I]: 2.03
PPVKRRLDMETDH [F9M]: 1.21
PPVKRRLDFDTDH [E10D]: 1.66
PPVKRHLDFETDH [R6H]: 1.08
PPNKRRLDFETDH [V3N]: -0.00734
PPQKRRLDFETDH [V3Q]: 0.355
PPVKRRLDFETVH [D12V]: 2.1
PPVKRRLDFETWH [D12W]: 1.52
PPLKRRLDFETDH [V3L]: 0.882
PPVKRRLDFETYH [D12Y]: 1.77

Study 6
Target: ABI1, truncated, D143A, DHFR fusion (Arabidopsis thaliana)
Method: DHFR PCA, deep sequencing
Matrix: yeast
Setting: methotrexate growth selection, single substitutions
Together with: (+)-ABA 710 µM
Baseline: wild-type fitted maximum
Reading: higher = stronger binding
Quantity: relative binding score
Starting sequence: PYL1, truncated, DHFR fusion (Arabidopsis thaliana); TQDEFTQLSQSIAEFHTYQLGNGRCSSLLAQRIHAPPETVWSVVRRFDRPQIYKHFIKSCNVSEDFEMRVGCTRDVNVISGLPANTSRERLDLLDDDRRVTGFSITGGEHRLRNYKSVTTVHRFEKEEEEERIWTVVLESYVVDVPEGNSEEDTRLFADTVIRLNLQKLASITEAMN; partner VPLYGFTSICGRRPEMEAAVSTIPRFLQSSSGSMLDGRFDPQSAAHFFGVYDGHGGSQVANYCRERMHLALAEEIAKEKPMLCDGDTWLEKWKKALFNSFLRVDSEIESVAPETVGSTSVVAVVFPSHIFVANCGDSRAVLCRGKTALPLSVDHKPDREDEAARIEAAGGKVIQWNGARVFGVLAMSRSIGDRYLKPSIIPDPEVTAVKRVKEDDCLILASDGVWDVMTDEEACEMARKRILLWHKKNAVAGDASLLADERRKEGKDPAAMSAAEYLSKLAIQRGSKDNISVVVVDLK
L164N: 101%
Q51S: 91.5%
S42E: 107%
D153F: 11.1%
L94G: -18%
R111I: 55.4%
P36C: 95.5%
N177V: 102%
A175G: 104%
E130M: 106%
H55G: 106%
F5N: 98.7%
P83C: 69%
E4K: 93.3%
N165C: 26.6%
R45M: 59.7%
R24M: 99.5%
V121W: 1.71%
S171N: 96.2%
K116N: 94.2%
S171T: 104%
L28M: 96.7%
D159I: 1.36%

Study 7
Target: Ras GTPase-activating protein-binding protein 1, full length (G3BP1, Homo sapiens, UniProt Q13283)
Chain of UniProt Q13283 (whole entry, looked up): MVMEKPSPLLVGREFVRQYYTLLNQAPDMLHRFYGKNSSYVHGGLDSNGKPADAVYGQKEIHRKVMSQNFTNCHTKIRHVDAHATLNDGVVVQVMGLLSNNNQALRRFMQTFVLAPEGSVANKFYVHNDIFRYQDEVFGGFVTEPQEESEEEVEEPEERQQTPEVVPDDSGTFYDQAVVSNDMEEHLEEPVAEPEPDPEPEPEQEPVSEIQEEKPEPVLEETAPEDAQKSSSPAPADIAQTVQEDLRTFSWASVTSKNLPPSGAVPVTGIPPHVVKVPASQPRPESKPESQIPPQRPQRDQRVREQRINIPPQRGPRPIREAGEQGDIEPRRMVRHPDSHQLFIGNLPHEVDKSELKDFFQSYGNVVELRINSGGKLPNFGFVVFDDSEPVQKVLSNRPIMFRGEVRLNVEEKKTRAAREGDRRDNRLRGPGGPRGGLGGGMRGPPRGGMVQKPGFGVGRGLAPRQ
Method: RNA Bind-n-Seq
Molecule type: RNA
Matrix: in vitro
Tested at: 200 nM
Setting: whole 134-nt RNA, ends assumed
Together with: 150 mM LiCl
Baseline: input library
Reading: higher = stronger binding
Quantity: log2 enrichment
Library: 7-deaza-guanosine replaces G
Shared flanks, not repeated: GGGAGUUCUACAGUCCGACGAUC … UGGAAUUCUCGGGUGUCAAGG
UGGGAGGUGGAUUUUGUUUACUUUUUUAGCUCAUUUCCAGGGGUGGGAAUUUUUUUUUAAUAUGUGUCAUGAAUAAAGUUGUUUUUGAAA: -0.047
UCAAGUCCUGUGCUACACAUCGUAUGUACCGAAUCGGGGUUGGGUUGGUUGGGGAAAGUAUUAUGUUACGCCGUUCGGAUCUGCACUUCC: 0.206
UAACUUUAGAGGAGGAUCUGAUGGAUAUGGCAGUGGACGUGGAUUUGGGGAUGUCUAUAAUGGGUAUGGAGGAGGACCUGGAGGUGGCAA: -0.0129
UAACUUUAGAGGAGGAUCUGAUGGAUAUGGCAGUUGACGUGGAUUUGGGGAUGGCUAUAAUGGGUAUGGAGGAGGACCUGGAGGUGGCAA: -0.156
CCUGUGCUACACAUCGUAUGUACCGAAUCAAAUUUUUUUAAAUUUUUAAAUUUUUUUAAAAAAGUAUUAUGUUACGCCGUUCGGAUCUGC: -2.57
UGGGGAGACUACGAUGACAGCGCCUUCAUGGAGCCCAGGUACCACGUCCGUGGAGAAGAUCUGGACAAGCUCCACAGAGCUGCCUGGUGG: -1.86
GCAGGAAGUAAAAACAAAAGGAAAUGCUUCGGAUAGUGGCAGGGGUGGGGGUUGCUAAGGAAAGGGUGGGAUGGGAGUGGGUAAAGAGUU: 0.214
UCCUGUGCUACACAUCGUAUGUACCGAAUCGGGUUUUUUUGGGAAAAAAAGGGAAAGGGAAAGUAUUAUGUUACGCCGUUCGGAUCUGCA: -1.41
GCAGGAGGUAAAAACAAAUGGAAAUGCUUCGGAUAGUGGCAGGGGUGGGGGUUGCUAAGGAAAGGGUGGGAUGGGAGUGGGUAAAGAGUU: -0.185
AGUCCUGUGCUACACAUCGUAUGUACCGAAUCGGGGAAAAAGGGAAAAAGGAAAAAGGAAAGUAUUAUGUUACGCCGUUCGGAUCUGCAC: -0.314
UGCGAUAUGAACGUUCACAAGCAAUGCGUCAUCAAUGUCCCCAGCCUCUGCGGAAUGGAUCACACUGAGAAGAGGGGGCGGAUUUACCUA: -0.53

For quick reference, copied from above (study 2):
GACATATA: 0.00997
ATCGCCAC: 0.0163
GTCCTGTA: 0.0548
GTCGCGGA: 0.246
CTTAGGCA: -0.196
CTGAGGGA: -0.209
CTGATGGA: -0.0193
ATCGTCCG: 0.124
GGTTCTAA: -0.05
GAATTAGC: -0.0605
CCGATGAG: 0.0358
AGTGGGGC: -0.18
AGCATCAT: -0.168
AGTGAGGA: -0.373
GTGGATCA: -0.101
AACCTGTA: -0.126
CATTCTCA: -0.0642
